Measurements from different studies.
Numbered parts are unrelated; each lists some results of a single study.

Block 1
Target: RING finger protein unkempt homolog, zinc fingers 1-6, GST-SBP tag (UNK, Homo sapiens, UniProt Q9C0B0, residues 30-357)
Technique: RNA Bind-n-Seq
Molecule type: RNA
Matrix: in vitro
Concentration: not given
Setting: RNA with constant flanks, human-mouse chimeric sites, ends assumed
Relative to: input RNA pool
Reading: higher = stronger binding
All sequences stand within: GGGAGUUCUACAGUCCGACGAUC … CAACAGAGGAUUGAGCAUCA
Target sequence (chain): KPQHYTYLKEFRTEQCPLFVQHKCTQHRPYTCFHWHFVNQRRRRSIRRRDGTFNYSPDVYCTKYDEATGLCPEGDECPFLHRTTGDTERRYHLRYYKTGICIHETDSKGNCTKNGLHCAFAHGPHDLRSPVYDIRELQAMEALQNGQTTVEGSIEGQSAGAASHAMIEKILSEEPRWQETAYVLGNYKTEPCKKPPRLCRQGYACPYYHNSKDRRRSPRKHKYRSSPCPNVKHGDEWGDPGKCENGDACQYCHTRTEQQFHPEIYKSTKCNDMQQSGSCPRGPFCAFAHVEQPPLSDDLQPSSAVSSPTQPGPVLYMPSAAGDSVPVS
Oligonucleotide | bound/input enrichment [ratio]
GGACAUCUGUCAAAUUGUUAUGUUCCUGUGAAACAAGUGAACACUCUGAUACACUUCAUUUAGUUGUACAUCUGUAUUUGUAUAAUAUGUAAAUAUGUUAAUCCAAGCAAUGUGUCACUU | 0.258
AACAUUUUGUCAAAUUGUAUUUCCCGUGUGAAACAAGUGAACACUCUGAUACACUUCAUCUGCUUGUACAUCUGUAUGAUAGAGAAAUGUAAAUAUGUUAAUCCAAGCAAUGUGUCACUU | 0.182
AACAUUUUUGUCAGGAUUUAUGUUCCUGUGAAACAAGUGAACACUCUGAUACACUUCAUCUGCUUGUACAUCUGUAUGAUAGAGAAAUGUAAAUAUGUUAAUCCAAGCAAUGUGUCACUU | 0.212
GUGCCCUUCUCGCUGCUGCGGAGCCCGCCCAGCUGGGCAUUCCGGGACUGGUACCCUGCACACAGCCGCCUCUUCGAUCAAGCUUUCGGGGUGCCCCGGUUGCCCGAUGAGUGGUCGCAG | 0.0639
AAUUUCCGCAACUGUUUUUUAGACAUUCACAUCAGACUUACAGAGCACCUGGCCACAUUCUAGGUUUGUGUUAUUUCUCAGCUAUGGAUAUGAUCAAAUGAGAACACUGGCAGCCAGAUG | 0.94
AUGGAGAAGGAUUCUCUGCCCCGCUUUGUGCGCUCUGAAUUUUAUAAGGAGCUAAUCAAGUAGUCAUUUAGCCAGGCUUCCAAAAGUUGCCCUGUGAGUUGAGUUACAUCCUUUGUAGCA | 1.18
AACUUCGUACAUAGAUUUCCCUUUGUAGCUGUUUCAAUUGGCUUCCUUGUGAAUAAAGAGAUGGAGUUUGGAAUUGUGUACAGCUGUGUGGAAGGCAAGAUGUACACCGGCAGGAAAGGG | 0.662
UGUAGUUGAUCCCCUGCUCAUUUUUCUCUUUUCUUUCUUUCCUUUAGGAAAAGCCUAAAGAUUAGGUUGUAAGAAAAACAGAAGCCAUGUUUCGAAGACCUGUGUUAAUUACAGGUAGUC | 0.0658
GACCCACAGUGGUCUGAGGAGCAACUCAUUGCUGCAAAAUUCUGUUUUGCUGGCCUUGUUAUAGGGCAGACUGAAGUGGACAUCAUGAGUCAUGCCACACAAGCUAUAUUUGAAAUACUG | 0.2
UCUGGUCACACUCGUGUGUAUGGUGUUUGCUUUGUGGACACUUCACUGGGCAAGUUUUUCAUAGGUCAGUUUUCGGAUGACCGCCACUGUUCCAGAUUUAGGACGCUAGUGGCUCACUAU | 0.283
UUCAAAGAAAAGGGCAGCUGUGUCAUUUCAUAAGUAACUCUGGGGGAGGGAAAUUCUGUUCUUUUGUUUAAUUUUCCCCCAAAUGAAACCAACAUGCGUGUUGAAGAACUGAGAAAAAAU | 0.103

Block 2
Target: Prothrombin, mature alpha-thrombin (F2, Homo sapiens, UniProt P00734)
Technique: aptamer microarray, sandwich
Molecule type: DNA with 2'F-ANA
Matrix: in vitro
Concentration: 200 nM
Setting: whole 15-mer aptamer, many near background
Added: Cy3 exosite-II aptamer, 400 nM
Reading: higher = stronger binding
Oligonucleotide: GGTTGGTGTGGTTGG
Modification | mean fluorescence intensity
2'F-ANA at 4 5 6 8 9 13 | 51 a.u.
2'F-ANA at 7 12 13 15 | 777 a.u.
2'F-ANA at 2 3 5 6 8 12 13 15 | 195 a.u.
2'F-ANA at 3 6 14 | 631 a.u.
2'F-ANA at 2 3 4 5 7 8 15 | 98.4 a.u.
2'F-ANA at 3 5 8 9 12 13 | 188 a.u.
2'F-ANA at 1 3 4 5 6 12 15 | 113 a.u.
2'F-ANA at 2 5 7 8 9 11 12 14 | 48.3 a.u.
2'F-ANA at 2 5 6 7 8 12 15 | 166 a.u.
2'F-ANA at 1 2 6 8 9 10 12 13 14 15 | 87 a.u.
2'F-ANA at 3 4 7 8 9 10 11 12 13 14 15 | 203 a.u.
2'F-ANA at 4 5 7 9 11 13 | 62.4 a.u.
2'F-ANA at 1 2 10 11 15 | 69.3 a.u.
2'F-ANA at 1 5 6 8 10 15 | 70.8 a.u.
2'F-ANA at 1 2 4 6 7 10 14 | 43 a.u.
2'F-ANA at 1 4 5 9 11 12 15 | 83.4 a.u.
2'F-ANA at 3 4 5 7 8 9 | 127 a.u.
2'F-ANA at 2 4 5 6 9 10 13 | 48.3 a.u.
2'F-ANA at 5 7 8 12 13 | 125 a.u.
2'F-ANA at 2 3 5 6 7 9 14 | 46 a.u.
2'F-ANA at 2 10 11 | 121 a.u.

Block 3
Target: RNA binding protein fox-1 homolog 2, RRM domain, GST-SBP tag (RBFOX2, Homo sapiens, UniProt O43251-10, residues 100-194)
Technique: RNA Bind-n-Seq
Molecule type: RNA
Matrix: in vitro
Concentration: 365 nM
Setting: natural RNA segment, single round, ends assumed
Relative to: no-protein control
Reading: higher = stronger binding
All sequences stand within: GGGAGUUCUACAGUCCGACGAUC … UGGAAUUCUCGGGUGCCAA
Construct (chain): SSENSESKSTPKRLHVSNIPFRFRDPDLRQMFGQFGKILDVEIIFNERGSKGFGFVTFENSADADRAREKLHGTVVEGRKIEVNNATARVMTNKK
Oligonucleotide | RBNS enrichment (R)
CAGUGGAGAGAUGUUUGGAAACCACAGUCAGUGGAGCCUGGGUGGUACCCAGGCUUUAGCAUUAUUGGAUGUCAAUAGCAUUGUUUUUGUCAUGUAGCUGUUUUAAGAAA | 0.735
GAUCUCAGCUCACUACAGCCUCCACCUCGUGGGUUCAAACAGUUGUGCUGCCUCAGCUUCCCGAGUAGCUAGGAUUACAGGUGCAUGCCACCACACCUGGCUAAUUUUUG | 0.342
AAUGGAGGGGAAAAAGGCCACAGCAAUCUGUACUACAAUCAACUUUAUUUUGAAAUCAUGUAAAAUAAGAUAUUAGACUGUUUUUUGAAUAAAAUAUUUUUAUUGAUUGA | 0.511
UGAGAUGGGAGAGAUUUGAAUAUAGAAUUUUUAUUCUCAAACUGUUUAGUCAUCUAAGGCUUCAUUGUACUUCGGGGAGAGCUAUAAGUAACUCACCUUUAAAACAACAG | 0.297
UUUGUUCUACAUCAUUCUCUCUUGAUCAAGAAAUGAAAUUUCUUAAUCCUUGAAUAUUAGUAAGGUCCAGGAAAGUUACCAGCUGAUGGCGGAGUGAAGCUCAGCUCGGU | 0.472
CCGUUGGAACUAUCAGUGGCGUCUCCCAUGCACACGCCCUCUGCUUUCUCUUUCCUAGACUCGCGGUGCUCACAUCCAGACAUUACCUUGUUGGUAGCCCCCAAGUGGCG | 0.386
UGUAAAAAUUGUAUAUAUUUUUACAGAAAGUCUAUUUCUUUGAACAUAAGAGGGAAGUCUUGGAUUUAGUUUUUUUCCAUACCCUUUUGAAAUUUGCAGCUUCUCUAGUU | 0.567
AAAAUGUAAUAAGAAAUGCAUAUGACUAGAUAGCAAUAGUGUUUUUUUUAGAUGGUAUGCUCUUGAUUGAAAUAUAUUCUCACUUUUACCAGGUUAAACAUUUGGAAUCU | 0.33
GAGGGGUACUUGUUUUCAUUGGAAAACUUUUAUGAUUAAGGGACUCUUUACAAACUGGCAUCUUAAGUUUUAGUGCCAUGUCGCUGUAGUCUGCUGCUUUCCUGGGUGGA | 0.505
AUAUAGUUAAACUGAGAGUAAUUCAUCUGUGAAUCUGCUUUAAUUACCUGGUGAGUAACUUAGAAAAGUGGUGUAAACUUGUACAUGGAAUUUUUUGAAUAUGCCUUAAU | 1.1
GAGACCAUUCUCAAGGGUAGGUGUUCUGCAGCCCCGAAUCAAAUCAUGUGAAAACCCCUUAAAUGAUCAUUGGUUCUCAACCUGUGCCAGCAUACUGCCUCUCUGUCUCC | 0.334
CUCCAGAGUUGAGCUUGUCCUUAUCUAGAAACAUGUGAAGAUGCCCAAGAGCCUGGAGGCACUGCUGUCCUUCCUGCAGAAACAGUUUCUCCUCCUCCCCUCAGCCUUGU | 0.683

Block 4
Target: Phosphate system positive regulatory protein PHO4, full length, GST-tagged (PHO4, Saccharomyces cerevisiae, UniProt P07270, residues 1-312)
Technique: competition protein-binding microarray
Molecule type: double-stranded DNA, one strand shown
Matrix: in vitro
Concentration: 2 µM
Setting: whole 60-bp probe, lowest competitor level
Added: Cbf1 competitor, 0.05 µM
Reading: higher = stronger binding
All sequences stand within: … GTCTTGATTCGCTTGACGCTGCTG
Residues (chain): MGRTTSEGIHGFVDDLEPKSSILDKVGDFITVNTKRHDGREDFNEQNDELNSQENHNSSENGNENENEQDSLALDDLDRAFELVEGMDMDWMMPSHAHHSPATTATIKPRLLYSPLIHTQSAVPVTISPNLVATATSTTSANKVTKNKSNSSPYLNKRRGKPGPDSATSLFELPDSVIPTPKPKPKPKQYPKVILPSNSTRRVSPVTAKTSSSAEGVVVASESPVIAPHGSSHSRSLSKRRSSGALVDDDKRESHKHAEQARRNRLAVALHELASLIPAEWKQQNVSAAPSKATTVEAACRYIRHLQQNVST
Oligonucleotide | fluorescence intensity
TTTCATGGACTTTTTCACGTGGTCGTTGCCATTTGT | 14400 a.u.
GGTCAAAAGAGAGGAGATGTGACGGGAGCCAAATTG | 4240 a.u.
ACTCCGGTGTTGAAGTCCGTGTCTGTCCAACCAAGA | 6130 a.u.
TTTAGTAATAATAATGATTTAATTAATGATAGTATA | 3800 a.u.
AAAGGTTATATCCATCACGTGACGGATCTGTAAAAG | 13900 a.u.
CGTCCTAGTGATTGCTAGGTGGGTGCCATGAGGAAG | 6440 a.u.
GATCTTGGATACGACCGTGTGACGCCCGAGACTCTT | 6160 a.u.
GTCTTGTCTCATTGGAGCGTGGGTGTCCCCACTTCA | 7970 a.u.
CAGAATTGTCCGAATCGTGTGACGGAAACAGCCTGT | 4720 a.u.
CTTGACTATCCAGATCGTGTGAGAGGGCAACTGTGT | 6220 a.u.
TGCCTTACTCGGTATCACATGGAAAAGACCCCCGGC | 6410 a.u.
AGAGAGTGGGATGCGGGCGTGGGTATCTGCTGTTAC | 9010 a.u.
CTTTCCCGATCTTTTCACGTGTTCTTAGCACATTTG | 12500 a.u.
TTGCAATACACTCGGCACGCACTTTATCACTGGGCT | 8320 a.u.
CGGGGTTAAGTTTGTAGAGTGGGTGGCTTGCAGCAG | 4740 a.u.
TCTGTGGGTAAATGTCTCGTGCAAAAAGACAGGCTA | 7670 a.u.
TTTTCTTTCGATTAGCACGCACACACATCACATAGA | 11900 a.u.
CTTCTGTAAATTTGTCACCCGACTTGACGCGCCCCG | 3450 a.u.
GTCTTGTCTCATTTTCACGTGTCCTTCCCCACTTCA | 12700 a.u.
CTAACGAAGGTTTGGGCAGTGGGTGACAAGCCAAGT | 3780 a.u.
AAAGCGGTAATTTGGCGCGTGGGTGCAGATATCTAT | 10900 a.u.
CATCAGCCTTCCATGCCCGTGCAATTACGGCTCCTC | 7190 a.u.
CAAGTTCCTGGCCATCACGTTGCCTTCTCCTTACGA | 11500 a.u.
AGAGCAAATAGTTGAAAGGTGTGCCATAAGAAGGTG | 6980 a.u.
